Experimental data gathered from unrelated publications.
Parts stem from different laboratories: compare values within a part only.

Sample 1 — technique: RNA Bind-n-Seq; form: RNA; medium: in vitro; concentration: 1 µM; notes: whole 134-nt RNA, ends assumed; added: 150 mM KCl; baseline: input library; reading: higher = stronger binding
Target: Ras GTPase-activating protein-binding protein 1, C-terminal RGG region (G3BP1, Homo sapiens, UniProt Q13283)
Sequence of UniProt Q13283 (whole entry, looked up): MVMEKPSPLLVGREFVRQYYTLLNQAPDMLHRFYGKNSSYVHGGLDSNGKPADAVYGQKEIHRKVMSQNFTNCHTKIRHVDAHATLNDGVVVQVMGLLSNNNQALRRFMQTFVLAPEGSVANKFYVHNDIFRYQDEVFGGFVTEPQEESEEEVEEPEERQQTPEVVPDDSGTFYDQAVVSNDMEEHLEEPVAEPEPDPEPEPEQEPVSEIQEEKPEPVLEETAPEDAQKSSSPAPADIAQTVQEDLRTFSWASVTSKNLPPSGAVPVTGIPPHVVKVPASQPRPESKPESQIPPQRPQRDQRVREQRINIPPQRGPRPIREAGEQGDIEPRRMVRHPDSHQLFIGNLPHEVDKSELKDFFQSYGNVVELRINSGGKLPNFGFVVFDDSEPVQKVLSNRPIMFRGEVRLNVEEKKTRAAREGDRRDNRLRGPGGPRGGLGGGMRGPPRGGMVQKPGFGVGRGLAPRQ
Constant ends, left off below: GGGAGUUCUACAGUCCGACGAUC … UGGAAUUCUCGGGUGUCAAGG
| Oligonucleotide | log2 enrichment |
| --- | --- |
| UCCUGUGCUACACAUCGUAUGUACCGAAUCGGGGAGGGGUUUUUGGGGUUUUUUUGGGGAAAGUAUUAUGUUACGCCGUUCGGAUCUGCA | 1.28 |
| ACCAUGCAGGUGGGCAUCUUUGGGAAGUGGGGCAAGGGGGGCAUAGGGAGGGGGGUAACACUUUGGGAACAGGUGGUCCCAGGUCGUUUC | 2.14 |
| UGGGAGGUGGAUUUUGUUUAUUUUUUUAGCUCAUUUCCUGGGGUGGGAAUUUUUUUUUAAUAUGUGUCAUGAAUAAAGUUGUUUUUGAAA | 3.62 |
| GCAGGAAGUAAAAACAAAUGGAAAUGCUUCGGAUAGUGGCAGGGGUGGGGGUUGCUAAGGAAAGGGGGGGAUGGGAGUGGGUAAAGAGUU | 2.16 |
| CACAGACAACACGCACCCACACAGACACAGAGGGAAGGGGUUGGUAUGGGGACAGGGUGCACAGCAGGGCGGGGUAGGACCCCAGCCCCU | -0.548 |
| ACGCUCCAUGAAAGCUAGGAGGGAGUGAAAUAUCAGUGAUCAUCGCAAGGAAGGAGGCAGACAAGAGUAAGGCACACCUGACUCUUAGGA | -1.65 |
| CACAGACAGCACGCACCCACACAGACACAGAGGGAAGGGGUUGGGAUGGGGACAGGGUGCACAGCAGGGCGGGGUAGGACCCCAGCCCCU | -0.47 |
| CACAGACGACACGCACCCACACAGACACAGAGGGAAGGGGUUGGGAUGGGGACAGGGUGCACAGCAGGGCGGGGUAGGACCCCAGCCCCU | -0.359 |
| GCAGGAAGUAAAAACAUAUGGAAAUGCUUCGGAUAGUGGCAGGGGUGGGGGUUGCUAAGGAAAGGGUGGGAUGGGAGUGGGUAAAGAGUU | 1.99 |

Sample 2 — technique: protein-binding microarray; form: double-stranded DNA, one strand shown; medium: in vitro; concentration: 2200 nM top; notes: 60-bp whole probe; added: salmon DNA 0.4 mg/ml; baseline: random background probes; reading: higher = stronger binding; constant ends, left off below: GCCTAGCAC … GTCTTGATTCGCTTGACGCTGCTG
Target: Interferon regulatory factor 7, full length, phosphomimetic (IRF7, Homo sapiens, UniProt Q92985, residues 1-503, S471D/S472D/S475D/S476D/S477D/S483D/S484D/S487D)
Construct (chain): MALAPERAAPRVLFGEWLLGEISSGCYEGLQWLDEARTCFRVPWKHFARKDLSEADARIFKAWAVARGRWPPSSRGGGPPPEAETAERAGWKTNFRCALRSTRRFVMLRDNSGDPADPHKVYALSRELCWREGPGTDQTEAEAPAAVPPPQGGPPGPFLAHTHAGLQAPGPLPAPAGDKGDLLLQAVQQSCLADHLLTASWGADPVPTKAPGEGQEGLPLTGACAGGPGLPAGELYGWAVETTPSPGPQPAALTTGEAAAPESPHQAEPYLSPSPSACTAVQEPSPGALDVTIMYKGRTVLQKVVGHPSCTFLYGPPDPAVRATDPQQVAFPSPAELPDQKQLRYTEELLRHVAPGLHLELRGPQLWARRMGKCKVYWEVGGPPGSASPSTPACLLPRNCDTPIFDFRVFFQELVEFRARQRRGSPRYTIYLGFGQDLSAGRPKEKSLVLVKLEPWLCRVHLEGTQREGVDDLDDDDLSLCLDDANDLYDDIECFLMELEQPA
| Oligonucleotide | fitted relative affinity [z-score] |
| --- | --- |
| TGAGATATCAGTTTCGATTAGTGCTAG | 5.57 |
| TTAGGTTTCGGGTTTGGGTTAGTGCTA | 8.62 |
| GACGGTATCGGTATCGGGCCGTGCTAG | -0.0134 |
| GACAGTATCGACTTTCGGGACGTGCTA | 3.47 |
| TTGTGTTTGGGCATTTTTCTAGTGCTA | 0.538 |
| GGCGGTATCGGGACTGGGGACGTGCTA | -1.19 |
| TGTGTTTTAAATAGGGCAAAGTGCTAG | -0.129 |
| TTAGGTCTCAGTTTCGGTTAGTGCTAG | 7.13 |
| TTAGGTACCCTTCTCCTTTAGTGCTAG | 0.986 |
| TTAGATTTCGGGTATCGATTTGTGCTA | 3.41 |
| GACGATTTCAGCTCCGAGACGTGCTAG | 0.609 |
| TCAGTATTATTTATTGTACTGTGCTAG | 0.566 |
| GACTATCTCAGTCTCGAGACGTGCTAG | 0.654 |
| TTACGTTTCCTTTTCCTTTAGTGCTAG | 7.9 |
| TTACATTTCGGGTTTCGATTAGTGCTA | 6.3 |
| TTAGGTTTCCTTATCCTTTAGTGCTAG | 2.09 |
| GACGTTTTCGACTATCGGGACGTGCTA | 3.9 |
| TAAGATATCGGGACTGGATTAGTGCTA | -0.36 |
| GACGGACTGCTTTTCCGGACGTGCTAG | 0.457 |

Sample 3 — technique: aptamer microarray, sandwich; form: DNA with 2'F-ANA; medium: in vitro; concentration: 200 nM; added: Cy3 exosite-II aptamer, 400 nM; reading: higher = stronger binding; oligonucleotide: GGTTGGTGTGGTTGG
Target: Prothrombin, mature alpha-thrombin (F2, Homo sapiens, UniProt P00734)
Notes: whole 15-mer aptamer, many near background
| Modification | mean fluorescence intensity |
| --- | --- |
| 2'F-ANA at 3 5 6 7 8 10 11 12 15 | 76.7 a.u. |
| 2'F-ANA at 1 5 6 12 14 15 | 50.3 a.u. |
| 2'F-ANA at 8 10 13 | 159 a.u. |
| 2'F-ANA at 2 10 12 14 15 | 91 a.u. |
| 2'F-ANA at 4 5 6 10 11 12 13 14 | 46.8 a.u. |
| 2'F-ANA at 1 2 3 5 6 10 12 13 14 15 | 73.1 a.u. |
| 2'F-ANA at 3 5 6 7 8 9 10 | 55.8 a.u. |
| 2'F-ANA at 1 4 6 13 | 72.6 a.u. |
| 2'F-ANA at 1 2 5 7 8 9 10 12 13 14 15 | 57.1 a.u. |
| 2'F-ANA at 5 6 7 8 9 11 14 | 68.3 a.u. |
| 2'F-ANA at 2 7 9 10 11 12 13 | 162 a.u. |
| 2'F-ANA at 4 5 7 9 10 12 | 57.7 a.u. |
| 2'F-ANA at 1 3 8 11 14 15 | 93.6 a.u. |
| 2'F-ANA at 1 5 6 9 11 14 15 | 46.1 a.u. |
| 2'F-ANA at 4 8 9 10 12 14 | 77.1 a.u. |
| 2'F-ANA at 1 3 6 8 10 11 13 15 | 68.9 a.u. |
| 2'F-ANA at 1 2 3 6 7 8 12 13 15 | 443 a.u. |
| 2'F-ANA at 5 6 7 13 15 | 53.4 a.u. |

Sample 4 — technique: universal PBM; form: double-stranded DNA, one strand shown; medium: in vitro; concentration: 600 nM; reading: higher = stronger binding
Target: Sal-like protein 4, full length isoform A (SALL4, Homo sapiens, UniProt Q9UJQ4, residues 1-1053)
Sequence of UniProt Q9UJQ4 (whole entry, looked up): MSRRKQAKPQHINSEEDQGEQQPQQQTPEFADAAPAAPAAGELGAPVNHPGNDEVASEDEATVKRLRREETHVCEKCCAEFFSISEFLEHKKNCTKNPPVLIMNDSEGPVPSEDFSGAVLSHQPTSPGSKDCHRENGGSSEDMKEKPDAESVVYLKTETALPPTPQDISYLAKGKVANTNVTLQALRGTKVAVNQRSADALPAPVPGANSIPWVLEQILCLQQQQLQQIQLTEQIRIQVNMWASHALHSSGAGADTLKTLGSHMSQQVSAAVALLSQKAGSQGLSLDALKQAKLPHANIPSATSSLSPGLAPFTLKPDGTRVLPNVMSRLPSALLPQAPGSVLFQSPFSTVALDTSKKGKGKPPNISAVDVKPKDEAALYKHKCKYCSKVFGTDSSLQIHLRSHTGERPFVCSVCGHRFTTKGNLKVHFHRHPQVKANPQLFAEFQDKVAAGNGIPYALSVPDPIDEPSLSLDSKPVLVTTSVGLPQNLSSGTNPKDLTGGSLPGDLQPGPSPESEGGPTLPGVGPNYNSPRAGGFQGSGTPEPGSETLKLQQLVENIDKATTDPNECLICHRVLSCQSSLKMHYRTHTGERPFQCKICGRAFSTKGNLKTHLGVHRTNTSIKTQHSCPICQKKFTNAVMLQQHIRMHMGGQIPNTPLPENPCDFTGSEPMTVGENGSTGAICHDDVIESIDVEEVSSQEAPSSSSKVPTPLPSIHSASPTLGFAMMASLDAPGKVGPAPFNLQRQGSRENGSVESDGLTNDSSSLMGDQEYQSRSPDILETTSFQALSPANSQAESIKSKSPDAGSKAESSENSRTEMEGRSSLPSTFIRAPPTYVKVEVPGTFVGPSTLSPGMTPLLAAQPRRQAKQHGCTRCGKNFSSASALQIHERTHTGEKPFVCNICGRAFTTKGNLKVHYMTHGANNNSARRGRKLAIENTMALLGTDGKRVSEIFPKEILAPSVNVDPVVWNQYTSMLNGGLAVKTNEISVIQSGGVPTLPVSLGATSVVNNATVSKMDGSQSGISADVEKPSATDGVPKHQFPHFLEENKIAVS
Notes: 8-mer, flanks averaged, mean of replicates
| Oligonucleotide | E-score |
| --- | --- |
| TGACCCAA | 0.0073 |
| CCCAGGGA | -0.351 |
| ACCAGTGA | -0.0242 |
| AAAAGGAT | 0.207 |
| GGGTGCGA | -0.184 |
| AGAGGGCT | -0.201 |
| CACGGAAG | -0.256 |
| AATGCCCA | -0.0864 |
| ATGTGGGG | -0.0592 |
| ATAATTTC | 0.359 |
| CTTTTAGA | 0.0938 |
| ACTGTAGG | -0.0375 |
| AACTGTGG | -0.165 |
| CGGCGGAG | -0.372 |
| ACGAGACT | 0.0183 |
| CCGTGCAC | -0.192 |
| CAACTGCG | -0.251 |
| GGCCAAGA | -0.263 |
| ATGATGTC | 0.089 |
| ACGGCCGC | -0.297 |
| TGATAACA | 0.299 |
| CCTTTCTC | 0.0947 |
| GCCTTTCC | 0.0048 |
| CTCCACTA | -0.0794 |
| TGCCACAA | 0.115 |

Repeated from above (sample 4):
| Oligonucleotide | E-score |
| --- | --- |
| ACGGCCGC | -0.297 |
| ATGATGTC | 0.089 |
| CACGGAAG | -0.256 |
| CTTTTAGA | 0.0938 |
